Measurements gathered from unrelated publications.
Compare with care: the assays were run in different laboratories. Several values in a cell are separate wells, animals, samples, runs or records. Numbers after ± are the reported error.
Uncharacterized hydrolase SAUSA300_2518: Uncharacterized hydrolase SAUSA300_2518 (Staphylococcus aureus, UniProt Q2FDS6)
Sequence of UniProt Q2FDS6 (whole entry, looked up): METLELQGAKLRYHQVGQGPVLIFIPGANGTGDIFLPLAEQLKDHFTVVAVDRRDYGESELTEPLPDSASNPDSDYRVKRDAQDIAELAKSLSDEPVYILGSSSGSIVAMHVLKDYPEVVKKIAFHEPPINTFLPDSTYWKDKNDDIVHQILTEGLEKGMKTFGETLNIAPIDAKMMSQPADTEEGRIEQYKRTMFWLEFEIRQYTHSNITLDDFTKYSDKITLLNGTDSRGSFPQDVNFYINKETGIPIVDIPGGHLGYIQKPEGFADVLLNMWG
Sequence of UniProt Q9Y243 (whole entry, looked up): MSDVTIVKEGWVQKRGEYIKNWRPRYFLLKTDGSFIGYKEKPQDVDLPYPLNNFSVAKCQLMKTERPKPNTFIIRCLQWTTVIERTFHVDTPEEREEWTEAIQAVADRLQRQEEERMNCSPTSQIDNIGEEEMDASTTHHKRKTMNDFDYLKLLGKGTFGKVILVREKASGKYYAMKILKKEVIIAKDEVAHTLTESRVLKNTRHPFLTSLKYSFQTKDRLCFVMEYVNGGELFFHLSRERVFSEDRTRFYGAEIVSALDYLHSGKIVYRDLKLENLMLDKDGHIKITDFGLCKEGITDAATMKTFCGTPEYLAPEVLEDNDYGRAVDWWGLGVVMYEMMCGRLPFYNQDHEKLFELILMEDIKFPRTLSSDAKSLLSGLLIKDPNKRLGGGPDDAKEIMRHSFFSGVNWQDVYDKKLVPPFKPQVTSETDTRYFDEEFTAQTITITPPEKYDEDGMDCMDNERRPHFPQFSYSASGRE
Sequence of UniProt P54578 (whole entry, looked up): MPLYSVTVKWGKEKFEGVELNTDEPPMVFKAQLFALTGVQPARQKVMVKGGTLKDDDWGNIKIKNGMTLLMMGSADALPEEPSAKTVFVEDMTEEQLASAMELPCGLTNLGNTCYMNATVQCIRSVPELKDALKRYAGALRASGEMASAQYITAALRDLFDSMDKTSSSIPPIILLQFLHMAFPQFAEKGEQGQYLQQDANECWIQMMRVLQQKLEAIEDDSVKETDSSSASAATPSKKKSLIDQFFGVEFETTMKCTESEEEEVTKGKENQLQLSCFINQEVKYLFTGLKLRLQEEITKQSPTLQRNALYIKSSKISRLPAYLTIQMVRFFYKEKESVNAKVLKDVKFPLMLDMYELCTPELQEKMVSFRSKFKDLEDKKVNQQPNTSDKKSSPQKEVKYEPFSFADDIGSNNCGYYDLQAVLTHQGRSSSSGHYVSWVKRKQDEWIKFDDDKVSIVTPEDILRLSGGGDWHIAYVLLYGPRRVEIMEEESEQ
Sequence of UniProt Q9UBE8 (whole entry, looked up): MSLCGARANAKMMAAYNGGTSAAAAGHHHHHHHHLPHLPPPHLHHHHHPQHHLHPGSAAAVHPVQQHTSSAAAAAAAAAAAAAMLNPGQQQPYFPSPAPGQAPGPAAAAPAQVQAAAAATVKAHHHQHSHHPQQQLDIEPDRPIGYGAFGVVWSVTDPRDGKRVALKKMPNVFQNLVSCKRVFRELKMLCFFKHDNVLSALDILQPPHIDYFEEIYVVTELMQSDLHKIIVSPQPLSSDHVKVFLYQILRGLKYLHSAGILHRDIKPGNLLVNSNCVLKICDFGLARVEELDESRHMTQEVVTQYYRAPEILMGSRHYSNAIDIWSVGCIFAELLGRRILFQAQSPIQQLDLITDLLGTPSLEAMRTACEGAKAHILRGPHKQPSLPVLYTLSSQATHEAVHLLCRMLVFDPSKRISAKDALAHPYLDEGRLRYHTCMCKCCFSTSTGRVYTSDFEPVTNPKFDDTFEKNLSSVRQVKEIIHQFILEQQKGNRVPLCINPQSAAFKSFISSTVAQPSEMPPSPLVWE
Sequence of UniProt Q9H3N8 (whole entry, looked up): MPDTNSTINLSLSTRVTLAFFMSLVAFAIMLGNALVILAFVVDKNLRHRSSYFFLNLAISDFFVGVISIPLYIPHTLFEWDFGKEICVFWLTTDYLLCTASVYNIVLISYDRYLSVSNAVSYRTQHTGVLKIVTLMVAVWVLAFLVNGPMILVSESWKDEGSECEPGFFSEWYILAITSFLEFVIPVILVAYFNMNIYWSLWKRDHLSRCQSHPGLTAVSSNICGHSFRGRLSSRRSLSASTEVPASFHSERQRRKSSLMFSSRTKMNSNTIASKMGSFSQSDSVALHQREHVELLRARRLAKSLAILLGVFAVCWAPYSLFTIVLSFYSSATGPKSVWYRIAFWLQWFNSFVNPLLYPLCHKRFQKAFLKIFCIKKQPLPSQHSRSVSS
Sequence of UniProt P53350 (whole entry, looked up): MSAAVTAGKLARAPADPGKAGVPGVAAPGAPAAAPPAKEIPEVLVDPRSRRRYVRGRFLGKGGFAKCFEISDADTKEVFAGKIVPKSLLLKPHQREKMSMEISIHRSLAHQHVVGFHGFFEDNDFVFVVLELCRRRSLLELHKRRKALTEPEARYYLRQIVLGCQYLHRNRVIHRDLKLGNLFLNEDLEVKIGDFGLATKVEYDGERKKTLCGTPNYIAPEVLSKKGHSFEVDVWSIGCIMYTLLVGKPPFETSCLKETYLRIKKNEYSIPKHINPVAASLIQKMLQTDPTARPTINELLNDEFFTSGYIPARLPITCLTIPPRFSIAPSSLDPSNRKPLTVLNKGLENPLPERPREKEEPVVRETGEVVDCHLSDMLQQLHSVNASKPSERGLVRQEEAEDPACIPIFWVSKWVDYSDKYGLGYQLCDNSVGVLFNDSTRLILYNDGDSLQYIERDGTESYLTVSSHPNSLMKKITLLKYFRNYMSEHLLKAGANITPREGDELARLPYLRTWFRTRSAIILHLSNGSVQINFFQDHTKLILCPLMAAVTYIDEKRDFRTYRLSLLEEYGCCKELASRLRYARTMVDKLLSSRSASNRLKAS
Sequence of UniProt P30043 (whole entry, looked up): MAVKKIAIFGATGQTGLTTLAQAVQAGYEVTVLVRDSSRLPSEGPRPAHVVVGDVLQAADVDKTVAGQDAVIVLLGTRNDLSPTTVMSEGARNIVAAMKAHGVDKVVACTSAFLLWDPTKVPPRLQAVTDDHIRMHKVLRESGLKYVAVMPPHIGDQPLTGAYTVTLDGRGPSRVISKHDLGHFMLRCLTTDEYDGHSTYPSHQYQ
Sequence of UniProt P16277 (whole entry, looked up): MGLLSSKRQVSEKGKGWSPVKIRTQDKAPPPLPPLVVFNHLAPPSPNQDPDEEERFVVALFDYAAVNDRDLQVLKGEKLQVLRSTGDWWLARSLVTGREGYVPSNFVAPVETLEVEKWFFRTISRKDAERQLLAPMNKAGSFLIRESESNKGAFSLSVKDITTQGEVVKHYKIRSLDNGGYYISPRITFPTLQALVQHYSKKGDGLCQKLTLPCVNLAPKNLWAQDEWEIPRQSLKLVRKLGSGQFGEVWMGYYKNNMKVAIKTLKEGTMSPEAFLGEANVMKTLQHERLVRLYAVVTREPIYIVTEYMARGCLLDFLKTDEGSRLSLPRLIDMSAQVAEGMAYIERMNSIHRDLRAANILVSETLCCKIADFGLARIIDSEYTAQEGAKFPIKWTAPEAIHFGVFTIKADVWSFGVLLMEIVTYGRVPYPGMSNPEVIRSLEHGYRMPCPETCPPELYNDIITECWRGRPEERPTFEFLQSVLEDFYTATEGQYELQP

Structure (SMILES)	tested on	test	system	conditions	scale	measurement	result
CC(C)(C)C(=O)OCOP(=O)(OCOC(=O)C(C)(C)C)C1CCCN(O)C1=O (stereo not shown)	TK-10					log TGI	-5.09 log M
O=C1NC2(CC2)COc2ncc(F)cc2[C@H]2COCCN2c2ccn3ncc1c3n2			Sprague-Dawley rat, female, serum	oral, 10 mg/kg/day, 4 weeks daily, end of treatment		total cholesterol	2.12 ± 0.55 mmol/L
Cc1ccc(N2CC3CCC(C2)N3C)cc1C(=O)N[C@H](C)c1cc(-c2cnn(C)c2)nc2ccccc12	Ubiquitin carboxyl-terminal hydrolase 14 (USP14, Homo sapiens, UniProt P54578)	enzyme activity		10 µM		remaining activity	98.5%
CN1CCCN(C(=O)c2ccc(S(=O)(=O)F)cc2)c2ccccc21	Uncharacterized hydrolase SAUSA300_2518	enzyme activity, inhibitor, fluorogenic substrate		0.01 µM		remaining activity	117% and 114%
CS(C)(=O)=Nc1ccc(-c2ccc(-c3nc4cc(O[C@@H]5CO[C@H]6[C@@H]5OC[C@H]6O)[nH]c4cc3F)cc2)cc1	Histamine H4 receptor (HRH4, Homo sapiens, UniProt Q9H3N8)	calcium signal, antagonist		10 µM		inhibition	-16%
CN(C)[C@H]1C[C@@]23CC[C@@]4(O2)C(=CC[C@]2(C)[C@@H](c5ccc6ccncc6c5)CC[C@H]24)C=C3[C@@H](O)[C@@H]1O	Serine/threonine-protein kinase NLK (NLK, Homo sapiens, UniProt Q9UBE8)	ATP probe labelling, inhibitor, KiNativ profiling		0.1 µM		inhibition	12.5%
O=C1NC(=O)c2c1c1cc(F)c[n+]3c1c1c2c2cc(O)ccc2[n]1[Ru-4]312([N]=C=S)[S+]3CC[S+]1CC[S+]2CC3 (stereo not shown)	Tyrosine-protein kinase Blk (Blk, Mus musculus, UniProt P16277)	enzyme activity		100 nM, mouse enzyme, added: 10 µM ATP	reference: untreated	remaining activity	8%
O=C(O)c1ccc(-c2nc(-c3ccccc3Cl)c3sccn23)cc1	Flavin reductase (NADPH) (BLVRB, Homo sapiens, UniProt P30043)			concentration not given		remaining activity	32%
N#CCC(=O)c1ccccc1	Genome polyprotein, 3C protease (Enterovirus D68, UniProt A1E4A3)	protease activity, FRET		19 µM, fragment alone		remaining activity	86.7 ± 5.5%
Cc1ccc(OS(=O)(=O)F)c(C(=O)Nc2ccncc2)c1	Uncharacterized hydrolase SAUSA300_2518	enzyme activity, inhibitor, fluorogenic substrate		0.1 µM		remaining activity	90.1% and 86.3% and 83.3%
Cc1ccc(C)c(-c2ccc3nc(NC(=O)C4CCCCC4)nn3c2)c1	Serine/threonine-protein kinase PLK1 (PLK1, Homo sapiens, UniProt P53350)	enzyme activity		10 µM		remaining activity	62%
O=S(=O)(F)c1cccc2c1OCC2	Uncharacterized hydrolase SAUSA300_2518	enzyme activity, inhibitor, fluorogenic substrate		50 µM		remaining activity	108% and 102%
[CH3][Ti+2][O]C(=O)c1ccc([S][Au][PH](c2ccccc2)(c2ccccc2)c2ccccc2)cc1.c1cc[cH-]c1.c1cc[cH-]c1	RAC-gamma serine/threonine-protein kinase (AKT3, Homo sapiens, UniProt Q9Y243)	kinase activity, HotSpot radiometric		1 µM, added: ATP 10 µM	reference: vehicle	remaining activity	85.8% and 85.3%

A few entries again:
Structure (SMILES)	tested on	test	system	conditions	scale	measurement	result
Cc1ccc(C)c(-c2ccc3nc(NC(=O)C4CCCCC4)nn3c2)c1	Serine/threonine-protein kinase PLK1 (PLK1, Homo sapiens, UniProt P53350)	enzyme activity		10 µM		remaining activity	62%
